Results of several laboratories.
Lines come from different studies, so protocols differ. Numbers after ± are the reported error.
Cell line: A2780

COc1ccc(CC2COC(=O)C2Cc2ccc3c(c2)OCO3)cc1OC (mixture of isomers)  IC50 (cytotoxicity, MTT; 72 h): 8.75 ± 0.47 µM
Cc1cc(C)c(N[C](NCc2ccc(N[C](Nc3c(C(C)C)cccc3C(C)C)=[Pt-]([Cl])([Cl])[C]#[N+]c3c(C(C)C)cccc3C(C)C)cc2)=[Au][Cl])c(C)c1  IC50 (cell growth or viability): > 100 µM
C=C1C(=O)[C@@]23CC[C@@H]4[C@](C)(COC(C)=O)CCC[C@@]4(COC(C)=O)[C@@H]2[C@@H](O)C[C@@H]1C3  IC50 (cell growth or viability, MTT): 18.8 µM
CC(C)c1cccc(C(C)C)c1[N+]#[C][Pt-]([Cl])([Cl])=[C](Nc1ccc(CN[C](NC(C)(C)C)=[Au][Cl])cc1)Nc1c(C(C)C)cccc1C(C)C  IC50 (cell growth or viability): > 100 µM
Cc1c(C)n(-c2c(C(C)C)cccc2C(C)C)c(=[Se])n1-c1c(C(C)C)cccc1C(C)C.[Cl][Au]  IC50 (cell growth or viability, MTT; 72 h): 0.5 µM
COc1ccc(COC[C@](O)(CNCc2ccc(F)cc2)[C@@H]2CC[C@@H](C)C[C@H]2OCc2ccc(OC)cc2)cc1  IC50 (cell growth or viability, MTT; 72 h): 1.9 µM
CC(C)c1cccc(C(C)C)c1N1CCN(c2c(C(C)C)cccc2C(C)C)C1=[Se].[Cl][Ag]  IC50 (cell growth or viability; 72 h, 3D culture): 23.5 µM
O=C(N[c-]1cccc1)OCc1ccc(C(=O)O)cc1.[Fe+2].c1cc[cH-]c1  IC50 (cell growth or viability, MTT; 48 h): > 50 µM
Cc1cc(C)c([N+]#[C][Pt-]([Cl])([Cl])=[C](Nc2cccc(CN[C](Nc3c(C(C)C)cccc3C(C)C)=[Au][Cl])c2)Nc2c(C)cc(C)cc2C)c(C)c1  IC50 (cell growth or viability): > 100 µM
CC(C)c1cccc(C(C)C)c1-n1c(Cl)c(Cl)n(-c2c(C(C)C)cccc2C(C)C)c1=[Se].[Cl][Au]  IC50 (cell growth or viability; 72 h, 3D culture): 9.2 µM
CC(C)=CCC1=C([O-])C(=O)c2ccccc2C1=O.CC(C)=CCC1=C([O-])C(=O)c2ccccc2C1=O.Cc1cc2cccnc2c2ncccc12.[Cu+2]  IC50 (cell viability, MTT; 48 h): 0.3 ± 0.1 µM
CC1=CC(c2cccc(C(F)(F)F)c2)=[O+][Ru-]([Cl])[O]1.Cc1c(C)c(C)c(C)c(C)c1C  IC50 (cell growth or viability, MTT): 5.1 µM
Cc1cc(C)c([N+]#[C][Pd-]([Cl])([Cl])=[C](Nc2ccc(CN[C](NC(C)(C)C)=[Au][Cl])cc2)Nc2c(C)cc(C)cc2C)c(C)c1  IC50 (cell growth or viability): 5 µM
[Cl][Au+][Cl].[O-][Cl+3]([O-])([O-])[O-].c1ccc(P(=NCc2ccccn2)(c2ccccc2)c2ccccc2)cc1  IC50 (cell growth or viability, MTT; 74 h): 19 µM
CCCCCCCCCCCCCCCCNC(=O)[O][Pt]([Cl])([Cl])[O]C(=O)CCC(=O)O.N.N  IC50 (cell growth or viability, MTT; 72 h): 0.16 µM
C[C@@H]1CC[C@@H]([C@](O)(CNCc2ccccc2F)COCc2ccccc2)[C@H](OCc2ccccc2)C1  IC50 (cell growth or viability, MTT; 72 h): 3 µM
[Cl][Au].[Se]=c1n(C23CC4CC(CC(C4)C2)C3)ccn1C12CC3CC(CC(C3)C1)C2  IC50 (cell growth or viability; 72 h, 3D culture): 4.4 µM
Cc1cc(C)c([N+]#[C][Pt-]([Cl])([Cl])=[C](Nc2cccc(CN[C](NC(C)(C)C)=[Au][Cl])c2)Nc2c(C)cc(C)cc2C)c(C)c1  IC50 (cell growth or viability): > 100 µM
CC(C)c1cccc(C(C)C)c1-n1ccn(-c2c(C(C)C)cccc2C(C)C)c1=[Se].[Cl][Au]  IC50 (cell growth or viability; 72 h, 3D culture): 8.7 µM
Cc1cc(C)c([N+]#[C][Pt-]([Cl])([Cl])=[C](Nc2ccc(CN[C](Nc3c(C)cc(C)cc3C)=[Au][Cl])cc2)Nc2c(C)cc(C)cc2C)c(C)c1  IC50 (cell growth or viability): > 100 µM
C[C@@H]1CC[C@@H]([C@](O)(COCc2ccccc2)Cn2cnc3ccccc32)[C@H](OCc2ccccc2)C1  IC50 (cell growth or viability, MTT; 72 h): 4.3 µM
CC(C)(C)N=[C](NCc1ccc(N)cc1)[AuH][Cl]  IC50 (cell growth or viability): > 100 µM
[Cl][Pd-2]1([Cl])[N+](=P(c2ccccc2)(c2ccccc2)c2ccccc2)Cc2cccc[n+]21  IC50 (cell growth or viability, MTT; 74 h): 7.1 µM
CC(=O)OC[C@H]1O[C@@H](Oc2ccc(C#[C][Pt+])cc2)[C@H](OC(C)=O)[C@@H](OC(C)=O)[C@@H]1OC(C)=O.O=S(=O)([O-])C(F)(F)F.c1ccc(-c2cccc(-c3ccccn3)n2)nc1  IC50 (cell growth or viability; 72 h): 3.66 µM
CC(C)=CCC1=C([O-])C(=O)c2ccccc2C1=O.CC(C)=CCC1=C([O-])C(=O)c2ccccc2C1=O.[Cu+2].c1ccc(-c2ccnc3c2ccc2c(-c4ccccc4)ccnc23)cc1  IC50 (cell viability, MTT; 48 h): 0.32 ± 0.05 µM
CC(=O)OC[C@@]12CCC[C@@](C)(CO)[C@H]1CC[C@@]13C[C@@H](C[C@H](O)[C@H]12)[C@H](C)C3=O  IC50 (cell growth or viability, MTT): > 20 µM
COc1ccc(CNC[C@@](O)(COCc2ccccc2)[C@@H]2CC[C@@H](C)C[C@H]2OCc2ccccc2)cc1  IC50 (cell growth or viability, MTT; 72 h): 3.8 µM
O=C(N[c-]1cccc1)OCc1ccc(F)cc1.[Fe+2].c1cc[cH-]c1  IC50 (cell growth or viability, MTT; 48 h): 15 µM
Oc1ccccc1-n1nc(-c2ccccc2)n[n+]1-c1ccccc1  IC50 (cell growth or viability, resazurin; 72 h): 160 µM
COC(=O)CCC(=O)[O][Pt-2]1([OH])([Cl])([Cl])[NH2+]CC[N+]1(C)C  IC50 (cell viability, EZ4U; 96 h): 19.7 ± 0.4 µM
CC12CCC3c4ccc(OCCCOc5no[n+]([O-])c5S(=O)(=O)c5ccccc5)c(Br)c4CCC3C1CCC2O (stereo not drawn)  IC50 (cell proliferation, MTT; 48 h): 0.029 µM
CC(C)c1cccc(C(C)C)c1[N+]#[C][Pt-2]([Cl])([Cl])[C]#[N+]c1c(C(C)C)cccc1C(C)C  IC50 (cell growth or viability): > 100 µM
[Fe+2].c1ccc(N=P(c2ccccc2)(c2ccccc2)[c-]2cccc2)cc1.c1ccc(N=P(c2ccccc2)(c2ccccc2)[c-]2cccc2)cc1  IC50 (cell growth or viability, MTT; 74 h): 40.3 µM

Excerpt of the above:
COc1ccc(CC2COC(=O)C2Cc2ccc3c(c2)OCO3)cc1OC (mixture of isomers)  IC50 (cytotoxicity, MTT; 72 h): 8.75 ± 0.47 µM
Cc1cc(C)c(N[C](NCc2ccc(N[C](Nc3c(C(C)C)cccc3C(C)C)=[Pt-]([Cl])([Cl])[C]#[N+]c3c(C(C)C)cccc3C(C)C)cc2)=[Au][Cl])c(C)c1  IC50 (cell growth or viability): > 100 µM
